Measurements gathered from unrelated publications.
Protocols differ between the studies behind these lines. ± marks the error that the study gave.

Chains of the proteins cited; added tags and fusions are not shown.
UniProt P28222, whole entry: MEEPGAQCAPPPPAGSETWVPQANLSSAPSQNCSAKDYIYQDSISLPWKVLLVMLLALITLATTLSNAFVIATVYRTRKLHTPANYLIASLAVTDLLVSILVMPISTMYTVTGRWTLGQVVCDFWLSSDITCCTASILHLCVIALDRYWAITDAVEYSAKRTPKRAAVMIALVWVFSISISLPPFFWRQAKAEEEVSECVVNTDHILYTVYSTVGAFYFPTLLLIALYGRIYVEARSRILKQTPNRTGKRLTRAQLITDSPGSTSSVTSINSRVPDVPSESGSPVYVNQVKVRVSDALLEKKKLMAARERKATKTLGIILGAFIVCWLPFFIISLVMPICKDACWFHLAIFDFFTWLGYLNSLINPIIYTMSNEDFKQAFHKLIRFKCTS

| Compound | target or system | assay | test system | conditions | scale | measurement | value |
| --- | --- | --- | --- | --- | --- | --- | --- |
| CC1(C)CC[C@]2(C(=O)O)CC[C@]3(C)C(=CC[C@@H]4[C@@]5(C)CC[C@H](OC(=O)NCc6ccccc6)C(C)(C)[C@@H]5CC[C@]43C)[C@@H]2C1 |  |  | C57BL/6 mice, plasma | intraperitoneal, 85 µmol/kg |  | AUC(0-t) | 63.7 nmol·h/mL |
| CN(CC(=O)N(Cc1ccc(C2CCCCC2)cc1)c1ccc(C(=O)NO)cc1)S(=O)(=O)c1c(F)c(F)c(F)c(F)c1F |  |  | CD-1 mouse, plasma | intravenous, 5 mg/kg, 30 min |  | plasma concentration | ~700 ng/mL |
| O=C(NCCNCCO)c1cc2c([nH]c3ccccc32)c(-c2cc(Cl)c(Cl)c(Cl)c2)n1 |  |  | human liver microsomes |  |  | half-life | 89.5 min |
| [11CH3]Nc1ccc(C(=O)C2CCN(C3Cc4ccccc4CC3O)CC2)cc1 (single isomer, unassigned) |  |  | Sprague-Dawley rat, muscle | intravenous, dose not given, 5 min |  | radioactivity uptake | 0.22 %ID/g |
| O=C(NC1CCN(c2ncnc3[nH]cnc23)CC1)c1cccc(NS(=O)(=O)c2ccc(F)cc2)c1 |  |  | mouse, plasma | oral, 70 mg/kg |  | AUC(0-t) | 28.9 ng·h/mL |
| CCCSc1nc(N[C@@H]2C[C@H]2c2ccc(F)c(F)c2)c2nnn([C@@H]3C[C@H](O)[C@@H](O)[C@H]3O)c2n1 |  |  | female Wistar rat, plasma | oral, 180 mg/kg/day ticagrelor, 5 h, week 26, 2-year carcinogenicity study |  | plasma concentration | 10 ± 4.4 µM |
| Cc1nc2c[nH]c(/C=C/C=C/c3ccc(N(C)C)cc3)cn-2c1=O |  |  | Balb/c mouse, brain | intravenous, dose not given |  | time to brain entry | ≤ 5 min |
| CC(C)C[C@@H](NC(=O)[C@H](NC(=O)[C@H]1CCCN1)[C@H](C)O)C(=O)N[C@H](Cc1c[nH]cn1)C(=O)N[C@@H](C(=O)N[C@H](Cc1c[nH]cn1)C(=O)N[C@H](CC(N)=O)C(=O)N[C@H](CCCNC(=N)N)C(=O)N[C@H](CCCNC(=N)N)C(=O)N[C@H](CCCNC(=N)N)C(=O)N[C@H](CCCNC(=N)N)C(=O)N[C@H](CCCNC(=N)N)C(N)=O)[C@H](C)O |  |  | healthy human, plasma | oral, 1 160 mg daily, days 8-12 pre-dose, mean |  | Css trough | 1.28 ng/mL |
| COc1ccc2c3c([nH]c2c1)[C@H](CC(C)C)N1C(=O)[C@H](CC(=O)OCc2ccccc2)NC(=O)[C@@H]1C3 |  |  | human liver microsomes | 20 µM, 60 min |  | remaining compound | 9 ± 2% |
| C[C@@H]1CN(C)CCN1c1nc(-c2ccc(F)cc2)cs1 |  |  | mouse, brain | intraperitoneal, 10 mg/kg |  | Cmax | 3530 ng/g |
| O=C(NC1CCCCC1)Oc1ccc(O)c(-c2ccccc2)c1 |  |  | rat plasma |  | baseline: cpd over URB597 | plasma half-life ratio | ~29 fold |
| [2H]c1c([2H])c(S(=O)(=O)N2CCC([2H])(C(=O)Nc3ccc4cc(C(=O)O)ccc4c3)CC2)c(C([2H])([2H])[2H])c([2H])c1C([2H])([2H])[2H] |  |  | human liver microsomes | 37 °C |  | half-life | > 240 min |
| C[C@H](CS)C(=O)N[C@@H](Cc1c[nH]c2ccccc12)C(=O)O | Enterobacter aerogenes |  | IMP-1 producing | 50 µM, together with: meropenem |  | MIC of meropenem | 8 mg/L |
| NC[C@@H](NC[C@@H]1CCCN1C[C@@H](CO)NC[C@@H](NCCC12CC3CC(CC(C3)C1)C2)c1ccccc1)c1ccccc1 | Acinetobacter baumannii | bacterial growth |  | 8 µM, fold shift of IC90, together with: amikacin |  | potentiation of amikacin | 1 fold |
| COc1cccc2c(N3CCC(CCP(=O)(O)O)CC3)ncnc12 |  |  | mouse, serum | subcutaneous, 10 mg/kg, 8 h, single dose |  | serum concentration | ≤ 10 nM |
| NCCNCCSc1ccccc1 |  |  | n-octanol/phosphate buffer | 50 µg/mL, pH 7.4 |  | logP | -0.59 ± 0.05 |
| COc1ccc(CN[C@@H]2CO[C@H](C(c3ccccc3)c3ccccc3)C[C@H]2O)cc1 | 5-hydroxytryptamine receptor 1B (HTR1B, Homo sapiens, UniProt P28222) | radioligand binding |  | 10 µM, together with: [3H]GR-125743 |  | inhibition | 9.1% |
| C1c2c(-c3nnn[nH]3)n[nH]c2[C@@H]2C[C@H]12 (relative stereo) |  | Hargreaves test | wild-type mouse | subcutaneous, 10 mg/kg |  | heat withdrawal response | no effect |

Some of these lines once more:
| Compound | target or system | assay | test system | conditions | scale | measurement | value |
| --- | --- | --- | --- | --- | --- | --- | --- |
| Cc1nc2c[nH]c(/C=C/C=C/c3ccc(N(C)C)cc3)cn-2c1=O |  |  | Balb/c mouse, brain | intravenous, dose not given |  | time to brain entry | ≤ 5 min |
